Measured values from different studies.
Every numbered part comes from another study and shows a few of its results, in no order. Positions count from the first letter of the parent shown.

Set 1 — method: protein-binding microarray; form: double-stranded DNA, one strand shown; sample: in vitro; concentration: 0.8 µM; notes: whole 60-bp probe, no competitor; direction: higher = stronger binding; endpoint: fluorescence intensity; shared flanks, not repeated: … GTCTTGATTCGCTTGACGCTGCTG
Target: Centromere-binding protein 1, full length, N-terminal tag (CBF1, Saccharomyces cerevisiae, UniProt P17106, residues 1-351)
Chain of UniProt P17106 (whole entry, looked up): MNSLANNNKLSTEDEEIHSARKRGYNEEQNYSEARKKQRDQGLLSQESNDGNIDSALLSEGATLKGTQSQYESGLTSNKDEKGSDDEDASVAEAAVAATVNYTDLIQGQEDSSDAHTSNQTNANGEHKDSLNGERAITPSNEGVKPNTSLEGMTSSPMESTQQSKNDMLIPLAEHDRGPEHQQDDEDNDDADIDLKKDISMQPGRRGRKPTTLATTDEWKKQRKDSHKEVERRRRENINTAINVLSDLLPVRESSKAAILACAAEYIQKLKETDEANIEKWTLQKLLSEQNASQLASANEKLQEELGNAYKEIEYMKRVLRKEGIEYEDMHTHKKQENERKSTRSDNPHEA
CTATGTCTTACAAAGCTCGTGATATTAGTATGCTTC: 1050 a.u.
GAAAGCCATAAGAGTTTCGTGATGGATGTAAGGTAG: 536 a.u.
GAACACGGATTTCAGCACGGGTTTCAGCACGGATAG: 745 a.u.
GAATTTTTTGTGTGGCATGTGCAGCGAGCGATGTAG: 839 a.u.
CTAATTGTAAAGAATAACGTGGAGGCAGTCAGATTC: 535 a.u.
GAAAAGCAGGGGCACCACCACCCGAAGGGACAATAG: 467 a.u.
CTATTGGTAAGTGATCACGTGGTCAGACAGTTTTTC: 28700 a.u.
GAAAGCCTGCAAGAGCACGAAAGATATGTTTTCTAG: 502 a.u.
CTAATTCACAGCTTTTACGTGCTATTTTTGGTCTTC: 482 a.u.
GAACCTTTCTCTCACGTGTAAATATTTGTGTGTTAG: 3370 a.u.
GAATATATAGTCCAAACCGTGACAACTATGCAGTAG: 630 a.u.
CTAAGTGAAAACGGAGTGGTGATGAAGATGGGGTTC: 511 a.u.
GAAAAAGAAAAAAATTACGTGACGCGACGCGTTTAG: 577 a.u.
CTATCTGTGGTGACAAAGGTGATGCAATTACTGTTC: 563 a.u.
CTACTGGTTTCCTGATACATCATGCACGCCCGTTTC: 526 a.u.
GAAACCAATGACTCTCTCGTGAAGCTACTATGGTAG: 518 a.u.
GAATTACCCGCTCGTGATACCTGACGACCATTATAG: 1860 a.u.
GAACATAATGGCCGGCATGTGAAATCGCGGCTTTAG: 528 a.u.
CTACGGAACTGTTCCCACGTTCTCTAGTTAATTTTC: 529 a.u.
GAACTTAGCTAATGCCACGTCAGAAAAATACACTAG: 560 a.u.
CTAGTAATGTTACCTCATCTGATATACAATAAATTC: 507 a.u.

Set 2 — method: protein binding microarray; form: double-stranded DNA, one strand shown; sample: in vitro; concentration: not given; baseline: not given; direction: higher = stronger binding; endpoint: E-score
Target: Histone acetyltransferase KAT6A, winged helix 1, GST fusion (KAT6A, Homo sapiens, UniProt Q92794, residues 1-85)
Notes: 8-mer, flanks averaged, mean of 2 arrays, mostly near background
Target sequence (chain): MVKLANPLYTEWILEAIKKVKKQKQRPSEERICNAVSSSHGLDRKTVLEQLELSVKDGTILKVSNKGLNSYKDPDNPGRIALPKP
ACTGCGGG: 0.146
AACCTCAG: -0.0944
AAGAAAGC: -0.0138
CACTGTAG: -0.0887
CGTTATAG: -0.0457
AGGTGTGC: -0.144
GCAGCAGA: -0.101
GTGATCCA: -0.0995
GGCTTAAA: 0.111
CCCGTAAG: 0.177
AACCTAAC: 0.0867
GCAGCCAC: -0.0496
TCTCACAA: -0.0578
CACTACAA: -0.164
TATGACCA: -0.0845
TATGCTAA: -0.095
GTTGTAGA: -0.0648
GGGCGTAC: 0.176
CGACAGGA: -0.0109
CAAAGTAC: -0.211
GGTCTGTA: -0.0113

Set 3 — method: aptamer microarray, sandwich; form: DNA with 2'F-ANA; sample: in vitro; concentration: 200 nM; together with: Cy3 exosite-II aptamer, 400 nM; direction: higher = stronger binding; endpoint: mean fluorescence intensity; oligonucleotide: GGTTGGTGTGGTTGG
Target: Prothrombin, mature alpha-thrombin (F2, Homo sapiens, UniProt P00734)
Notes: whole 15-mer aptamer, many near background
2'F-ANA at 1 2 4 5 7 8 11: 102 a.u.
2'F-ANA at 2 5 6 7 8 10 12 13 15: 47.3 a.u.
2'F-ANA at 2 3 6 10 11 12 13: 375 a.u.
2'F-ANA at 2 3 5 6 8 9 10 12 15: 54.5 a.u.
2'F-ANA at 3 4 6 9 11 12 15: 647 a.u.
2'F-ANA at 1 2 3 5 6 7 8 12 13 15: 103 a.u.
2'F-ANA at 3 10 13 15: 608 a.u.
2'F-ANA at 1 3 5 8 11 13 14 15: 67.9 a.u.
2'F-ANA at 1 3 5 7 9 10 11 13: 62.9 a.u.
2'F-ANA at 1 4 6 8 9 10 12 13 14 15: 52.3 a.u.
2'F-ANA at 4 6 8 9 13: 174 a.u.
2'F-ANA at 2 3 5 6 7 8 9 10 11 12 14: 47.7 a.u.
2'F-ANA at 5 6 7 9 10 12 13 14: 46.4 a.u.
2'F-ANA at 1 2 3 8 9 10 11 13 14: 238 a.u.
2'F-ANA at 1 2 3 4 7 9 11 14: 71.5 a.u.
2'F-ANA at 1 3 4 5 7 11 14 15: 46.8 a.u.

Set 4 — target: CCNB3, cyclin fold, Cln2 fusion (human); method: yeast growth competition, sequencing; sample: yeast; notes: strong parent motif; baseline: not given; direction: higher = stronger binding; endpoint: normalised enrichment score
Parent: BRCA2 docking peptide (human); PSIKRNLLNEFDR
GSIKRNLLNEFDR [P1G]: 0.822
PSIKRNLLNEFDS [R13S]: 1.34
PSIKRNLLNEWDR [F11W]: -0.0693
PSIKRVLLNEFDR [N6V]: 0.416
PSIKRNLTNEFDR [L8T]: 0.544
PSIKRNLLNELDR [F11L]: 0.141
SSIKRNLLNEFDR [P1S]: 1.06
PSIKRNLWNEFDR [L8W]: -0.0989
PSIKRNLLNENDR [F11N]: -0.19
PSIKRNLLNEFDQ [R13Q]: 0.943
PSIKRILLNEFDR [N6I]: 0.156
PSIKENLLNEFDR [R5E]: -0.0758
PSICRNLLNEFDR [K4C]: 1.5
PSIKANALNEFDR [R5A L7A]: 0.0547
TSIKRNLLNEFDR [P1T]: 1.1
PSIKRNLLNEADR [F11A]: 0.163
WSIKRNLLNEFDR [P1W]: 1.92
PSIKRNLLNEHDR [F11H]: 0.0979
PSIKRNLLNMFDR [E10M]: 0.0257
PSIKRDLLNEFDR [N6D]: 0.3
PSIKRNLLNEFDM [R13M]: 0.878
PSIKRNLLFEFDR [N9F]: 0.598
PSIKRYLLNEFDR [N6Y]: 0.0784
PSIKRNQLNEFDR [L7Q]: -0.124
PSIKRNLLNLFDR [E10L]: 0.311

Set 5 — method: RNA Bind-n-Seq; form: RNA; sample: in vitro; concentration: not given; baseline: input RNA pool; direction: higher = stronger binding; endpoint: bound/input enrichment
Target: RING finger protein unkempt homolog, zinc fingers 1-6, GST-SBP tag (UNK, Homo sapiens, UniProt Q9C0B0, residues 30-357)
Notes: RNA with constant flanks, human and mouse sites, ends assumed
Shared flanks, not repeated: GGGAGUUCUACAGUCCGACGAUC … CAACAGAGGAUUGAGCAUCA
Residues (chain): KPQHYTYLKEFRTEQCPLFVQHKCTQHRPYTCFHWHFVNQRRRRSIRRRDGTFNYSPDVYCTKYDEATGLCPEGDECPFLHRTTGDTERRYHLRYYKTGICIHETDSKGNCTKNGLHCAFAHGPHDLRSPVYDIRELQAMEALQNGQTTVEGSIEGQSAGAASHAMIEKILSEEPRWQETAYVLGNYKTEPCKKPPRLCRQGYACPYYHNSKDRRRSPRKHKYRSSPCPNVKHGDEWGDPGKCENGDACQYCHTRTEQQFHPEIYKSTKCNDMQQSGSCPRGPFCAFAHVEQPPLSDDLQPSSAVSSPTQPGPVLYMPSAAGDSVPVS
AUUCUGACCAUGAUUCCAACUGAAGAGGAGAAGCAGAAAAUCCAGGAGGCUCAGCUGGCUAACCCGGAAGUGCCGUUGGGCAGUGCAGAGCAGUUCCUUCUCACACUCUCUUCCAUCAGU: 0.0749 ratio
CACAGUGAACGAGACAUGAGAAAUACACUGGAAAAGUUCGCUGCAAGCAUCCAGGGCUUAUCAGAGCAAGAAGAGUAUCUGUGUGUACAAAUUAAAGAACUGGAAGCUAACGUUCUUACU: 0.127 ratio
UGUUUUGUUAUGCAUGACGUGUCUAUAACAAAUAUACACAUACGACAGGCAACAAGCUUGUUUUUGAUUUGCCAGACAUGCAUCAUUGGCUAUUGUUUGUUUGUUUUUUGUUUUUUUGUG: 0.206 ratio
AGCGGCCUGAAAGAUUUCAAAACCUUUUUGACAAAUGAUCAAGUAAAGGUCACCGAUGAAGAGAAUGCAAGUUCAGGUGCAGAUGCUCCCAGUGCAUCAGACACCACAGCCAAGCAAAAU: 0.0994 ratio
AUUCGCCUUUGUCUUGUACUUCUGUGUUCAUUCUCCUCCCCCACCCCCAAUUUUUGCUAGUGUGUCCACUAUCCCAAUCAAAGAAUUACAGUAUACGUCACCCCAGAACCCGCAGAUGUG: 0.916 ratio
GACAUUGCCAUCAACGAACUCAUGAAAAGAUACUGUCCUAAUUCCGUAUUGGUCAUCAUUGAUGUGAAGCCGAAGGACCUAGGGCUGCCUACAGAAGCGUACAUUUCAGUGGAAGAAGUC: 0.0834 ratio
AAAGCACACAGACUUCUCAGCCCAUGUACUGUGCCUGCCAAGCCAUUGGAACCUGAAACCGUAGCUAGCGAGAACUUGCGCAGCCACAUACCAAAGCCGAAGGCUACUCUGUGCCAUUCC: 0.129 ratio
UUCAGCCCCCUGAAAGCCUCUGGAGAUGGAGAAUCUCUGGAUGAAGAUUCCGAGUUCACCUUAGCCUCUGACUUUGAAAUUGGGCACUUUUUUCGUGAGCGCAUCGUGCCACGGGCUGUC: 0.109 ratio
GAACUGCCUCUUCGAUUCCCUGAGCCAGAUGCUGAGGAAAAAUGUAGAAAAGCGAGCUUUGCUGGAGAACAUGGAGGGCCUCUUCUUGGCUGUGGAUGAAAUUGUAGAUGGAGGGGUGAU: 0.381 ratio
AAUUGAACAAAAAUGUUUCCACUGGCUUUUGCCUGUAAGAAAAAAAAUGUACCCGAGCACAUAGAGCUUUUUAAUAGCACUAACCAAUGCCUUUUUAGAUGUAUUUUUGAUGUAUAUAUC: 136 ratio
CACUAAGUCUUUAAAGGUCUUCUGGGGAAAGGACCUAGGGGACUGGAAAUCCAAGCCCGGAGCAAGUGGCUGACUUCUCCUGGAUCUUUUCCCACCUCGGUAUUUUCCCUUGGAUAUUAA: 0.119 ratio

Mixed results
PhoQ, residues 284 288 289 292 302 303 NLSRDF
fold induction (PhoP, residues 12 14 15 18 19 LHSVQ (Escherichia coli, UniProt P23836); Sort-seq, refers to: YFP reporter; E. coli; PhoQ-PhoP variant library, together with: 10 µM Mg2+; baseline: high Mg2+ state, higher = stronger signaling): 10.4

Excerpt of the above (set 3):
2'F-ANA at 1 4 6 8 9 10 12 13 14 15: 52.3 a.u.
2'F-ANA at 1 2 3 4 7 9 11 14: 71.5 a.u.
2'F-ANA at 1 3 5 7 9 10 11 13: 62.9 a.u.
2'F-ANA at 2 5 6 7 8 10 12 13 15: 47.3 a.u.
2'F-ANA at 1 3 5 8 11 13 14 15: 67.9 a.u.
2'F-ANA at 5 6 7 9 10 12 13 14: 46.4 a.u.
2'F-ANA at 2 3 5 6 8 9 10 12 15: 54.5 a.u.
2'F-ANA at 3 10 13 15: 608 a.u.
2'F-ANA at 1 3 4 5 7 11 14 15: 46.8 a.u.
